Assay results of several laboratories.
Lines come from different studies, so protocols differ. Several values in a cell are separate wells, animals, samples, runs or records. Numbers after ± are the reported error.
UniProt O94806, sequence (whole entry, looked up): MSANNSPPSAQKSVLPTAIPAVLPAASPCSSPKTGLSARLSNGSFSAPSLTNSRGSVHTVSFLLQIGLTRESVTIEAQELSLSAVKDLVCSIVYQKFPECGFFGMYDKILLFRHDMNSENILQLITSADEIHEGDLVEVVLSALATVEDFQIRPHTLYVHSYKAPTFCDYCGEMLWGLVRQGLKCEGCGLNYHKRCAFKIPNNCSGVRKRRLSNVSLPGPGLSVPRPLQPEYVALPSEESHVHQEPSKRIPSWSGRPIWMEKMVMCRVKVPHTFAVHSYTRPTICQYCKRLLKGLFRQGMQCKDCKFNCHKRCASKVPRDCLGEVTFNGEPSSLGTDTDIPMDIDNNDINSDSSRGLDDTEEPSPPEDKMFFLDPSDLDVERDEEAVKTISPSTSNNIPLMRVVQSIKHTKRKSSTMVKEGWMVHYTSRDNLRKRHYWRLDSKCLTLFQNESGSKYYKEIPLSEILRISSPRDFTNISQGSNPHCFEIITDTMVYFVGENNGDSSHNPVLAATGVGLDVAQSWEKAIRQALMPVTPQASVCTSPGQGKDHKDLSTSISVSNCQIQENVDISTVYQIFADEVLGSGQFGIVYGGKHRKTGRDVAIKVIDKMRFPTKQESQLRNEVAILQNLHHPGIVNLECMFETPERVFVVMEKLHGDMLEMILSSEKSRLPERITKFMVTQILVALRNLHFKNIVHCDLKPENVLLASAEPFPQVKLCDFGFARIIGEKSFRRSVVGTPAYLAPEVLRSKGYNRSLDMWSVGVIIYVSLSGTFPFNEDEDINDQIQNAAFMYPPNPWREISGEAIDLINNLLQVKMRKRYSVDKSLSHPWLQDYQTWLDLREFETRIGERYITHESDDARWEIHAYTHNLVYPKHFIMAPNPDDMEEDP
UniProt O96017, sequence (whole entry, unmodified, looked up): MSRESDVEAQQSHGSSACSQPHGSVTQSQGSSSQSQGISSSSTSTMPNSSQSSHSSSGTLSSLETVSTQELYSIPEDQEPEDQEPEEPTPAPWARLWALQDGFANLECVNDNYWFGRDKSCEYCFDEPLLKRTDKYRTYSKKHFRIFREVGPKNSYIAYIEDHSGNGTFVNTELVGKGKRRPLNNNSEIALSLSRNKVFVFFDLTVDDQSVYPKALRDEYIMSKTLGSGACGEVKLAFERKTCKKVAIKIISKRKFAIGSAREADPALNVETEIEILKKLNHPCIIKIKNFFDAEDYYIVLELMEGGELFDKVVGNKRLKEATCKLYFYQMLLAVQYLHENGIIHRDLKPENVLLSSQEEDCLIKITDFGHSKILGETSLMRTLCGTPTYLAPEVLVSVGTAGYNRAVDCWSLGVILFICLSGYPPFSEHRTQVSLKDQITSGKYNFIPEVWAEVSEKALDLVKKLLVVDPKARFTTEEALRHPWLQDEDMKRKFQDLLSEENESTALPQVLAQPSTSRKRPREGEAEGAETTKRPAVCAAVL

CS(C)(=O)=Nc1ccc(-c2ccc(-c3nc4cc(O[C@@H]5CO[C@H]6[C@@H]5OC[C@H]6O)[nH]c4cc3F)cc2)cc1 has an inhibition of -13% (ABL1 (Homo sapiens, UniProt P00519, Y253F); enzyme activity, inhibitor; 10 µM).
Cc1cc(Oc2nc(N3CC[C@@H](c4ccncc4)C3)ncc2F)[nH]n1 has an IC50 of 24.5 µM (MINO; cell proliferation; blood cancer).
COc1ccccc1-c1ccncc1C(=O)Nc1nnc(OCc2ccc(Cl)cc2)s1 has a colony survival of 53.6% (HCT116 BRCA2-/-; 1 µM, average of 3 runs; reference: untreated).
The selectivity ratio of CSCC[C@H](NC(=O)[C@@H](NC(=O)[C@H](CCC(N)=O)NC(=O)[C@H](CO)NC(=O)[C@@H](N)C(C)C)[C@@H](C)O)C(=O)N[C@@H](CCCNC(=N)N)C(=O)N[C@@H](CCC(N)=O)C(=O)N[C@H](C(=O)N[C@@H](C)C(=O)N[C@H](C(=O)N1CCC[C@H]1C(=O)N[C@@H](CC(C)C)C(=O)N[C@@H](CC(C)C)C(=O)N[C@@H](Cc1c[nH]c2ccccc12)C(=O)N[C@@H](Cc1ccccc1)C(=O)N[C@@H](Cc1c[nH]c2ccccc12)C(=O)N[C@H](C(=O)NCC(=O)N[C@@H](CO)C(=O)N[C@@H](CC(C)C)C(=O)NCCOCCOCCOCCOCCOCCOCCOCCOCCOCCOCCOCCOCCC(=O)N[C@@H](CS)C(N)=O)[C@@H](C)O)C(C)C)[C@@H](C)O is reported as 5.3 ± 3.4 (HCC515; phage binding; reference: targeting over control phage).
The protein level of CC(C)CC(O)(CC(C)C)c1cn(C(=O)N2CCCC2)nn1 is reported as 1.01 (mouse T-cells; SILAC proteomics, measured: S100A4; 1 nM, 6 h, unit not given; reference: DMSO).
With O=C(C[Se]C(=O)c1cc2ccccc2[nH]1)Nc1cccc(C(F)(F)F)c1 the CC50 was 5.46 µM (NCI60 NSCLC subpanel; NCI60 five-dose screen).
Under “organ-to-body weight ratio”, O=C1NC2(CC2)COc2ncc(F)cc2[C@H]2COCCN2c2ccn3ncc1c3n2 is recorded as 0.135 ± 0.03% (Sprague-Dawley rat, female, thymus; oral, 10 mg/kg/day, 4 weeks dosing, end of recovery).
O=C1NC(=O)c2c1c1cc(F)c[n+]3c1c1c2c2cc(O)ccc2[n]1[Ru-4]312([N]=C=S)[S+]3CC[S+]1CC[S+]2CC3 (stereo not shown) has a remaining activity of 37% (CHEK2 (Homo sapiens, UniProt O96017, I157T); enzyme activity; 100 nM, human enzyme, added: 10 µM ATP; reference: untreated).
COc1ccccc1-c1n[nH]c2nc(NC3CCN(C(=O)Cc4ccc(F)cc4F)CC3)ncc12 gave a relative abundance of 0.8 (bead binding, competition bead pull-down, measured: LINJ.33.1410; Leishmania donovani axenic amastigote extract; 10 µM; reference: vehicle).
With CC(C)[C@H](NC(=O)[C@H](CCCNC(=N)N)NC(=O)[C@@H]1CCCN1C(=O)[C@@H](NC(=O)[C@H](C)NC(=O)[C@H](Cc1ccc(O)cc1)NC(=O)[C@H](CCC(N)=O)NC(=O)[C@H](CCCCN)NC(=O)[C@H](CCCNC(=N)N)NC(=O)[C@@H]1CCCN1C(=O)[C@H](CCC(=O)O)NC(=O)[C@@H](NC(=O)[C@H](C)N)[C@@H](C)O)[C@@H](C)O)C(=O)N[C@@H](Cc1ccccc1)C(=O)N[C@@H](Cc1c[nH]c2ccccc12)C(=O)N[C@H](C(=O)N[C@@H](CC(=O)O)C(=O)N[C@@H](C)C(=O)N1CCC[C@H]1C(=O)NCC(=O)NCCOCCOCCOCCOCCOCCOCCOCCOCCOCCOCCOCCOCCC(=O)N[C@@H](CS)C(N)=O)[C@@H](C)O the selectivity ratio was 24 ± 6 (T47D breast cancer; cell binding, phage binding, measured: output/input phage; 10 min, 37 °C; reference: control phage).
O=C(C[Se]C(=O)c1cccs1)Nc1cccc(C(F)(F)F)c1 gave a GI50 of 1.65 µM (NCI60 prostate subpanel (PC-3, DU-145); cell growth, inhibitor; five-dose).
The inhibition of CN(C)[C@H]1C[C@@]23CC[C@@]4(O2)C(=CC[C@]2(C)[C@@H](c5ccc6ccncc6c5)CC[C@H]24)C=C3[C@@H](O)[C@@H]1O is reported as -5.1% (PRKD3 (Homo sapiens, UniProt O94806); ATP probe labelling, inhibitor, KiNativ profiling; 0.1 µM).
O=C(C[Se]C(=O)c1ccccc1)Nc1cccc(C(F)(F)F)c1 gave a mean TGI of 4.99 µM (NCI60 prostate subpanel (PC-3, DU-145); total growth inhibition, inhibitor; five-dose).
For CC(C)(C)C(=O)OCOP(=O)(OCOC(=O)C(C)(C)C)C1CCCN(O)C1=O (stereo not shown), the CC50 was > 100 µM (SF-268).
Cc1cc(C(=O)Nc2nc3cccc(C)c3n2[C@H]2CCCCN(C(=O)/C=C/CN(C)C)C2)ccn1: “EC50 fold shift” 0.62 fold and 1.27 fold (Trypanosoma brucei; cell growth, Alamar Blue; 2T1 overexpressing Tb927.10.7780; reference: parental 2T1).
The selectivity ratio of CC(C)C[C@H](NC(=O)[C@H](CC(=O)O)NC(=O)CNC(=O)[C@@H](N)CCCNC(=N)N)C(=O)N[C@@H](C)C(=O)N[C@H](C(=O)N[C@@H](CC(C)C)C(=O)N[C@@H](CCCNC(=N)N)C(=O)N[C@@H](CCC(N)=O)C(=O)N[C@@H](CC(C)C)C(=O)N[C@@H](C)C(=O)N[C@@H](CCC(N)=O)C(=O)N[C@@H](CCC(=O)O)C(=O)N[C@@H](CC(=O)O)C(=O)NCC(=O)N[C@H](C(=O)N[C@H](C(=O)NCC(=O)N[C@H](C(=O)N[C@@H](CCCNC(=N)N)C(=O)NCCOCCOCCOCCOCCOCCOCCOCCOCCOCCOCCOCCOCCC(=O)N[C@@H](CS)C(N)=O)C(C)C)C(C)C)C(C)C)[C@@H](C)O is reported as 1.3 ± 0.8 (H1264 lung adenocarcinoma; cell binding, phage binding, measured: output/input phage; 10 min, 37 °C; reference: control phage).
For O=C(O)c1ccc(-c2nc(-c3ccccc3Cl)c3sccn23)cc1, the fold change was 1.21 fold and 1.14 fold and 1.08 fold and 1.13 fold and 1.18 fold and 1.23 fold and 1.15 fold and 1.29 fold (human CD34+ hematopoietic stem cells; megakaryocyte differentiation, flow cytometry, measured: CD41a; 10 µM, day 3, added: TPO; reference: control).
With CC(=O)NCSC[C@H](NC(=O)[C@@H]1CCCN1C(=O)[C@H](C)NC(=O)[C@@H](NC(=O)CNC(=O)[C@@H](NC(=O)[C@H](Cc1c[nH]c2ccccc12)NC(=O)[C@H](C)NC(=O)CNC(=O)[C@H](CO)NC(=O)[C@H](C)NC(=O)[C@@H]1CCCN1C(=O)[C@H](Cc1c[nH]c2ccccc12)NC(=O)[C@H](C)NC(=O)[C@H](C)NC(=O)[C@@H](N)Cc1ccc(O)cc1)[C@@H](C)O)[C@@H](C)O)C(=O)N[C@@H](CO)C(=O)N[C@@H](C)C(=O)NCC(=O)N[C@H](C(=O)NCCOCCOCCOCCOCCOCCOCCOCCOCCOCCOCCOCCOCCC(=O)N[C@@H](CS)C(N)=O)[C@@H](C)O the selectivity ratio was 1.7 ± 0.29 (HCC515; phage binding; reference: targeting over control phage).
For O=C(C[Se]C(=O)C12CC3CC(CC(C3)C1)C2)Nc1cccc(C(F)(F)F)c1, the CC50 was 32.8 µM (NCI60 prostate subpanel (PC-3, DU-145); cytotoxicity, inhibitor; five-dose).

A few entries again:
The protein level of CC(C)CC(O)(CC(C)C)c1cn(C(=O)N2CCCC2)nn1 is reported as 1.01 (mouse T-cells; SILAC proteomics, measured: S100A4; 1 nM, 6 h, unit not given; reference: DMSO).
With O=C(C[Se]C(=O)c1cc2ccccc2[nH]1)Nc1cccc(C(F)(F)F)c1 the CC50 was 5.46 µM (NCI60 NSCLC subpanel; NCI60 five-dose screen).
